{"data": "Measurements from different studies", "note": "A part holds a random share of what one study measured. “And” joins repeats or separate records; there may be more than shown."}
{"data": "Study 1", "cell line": "mouse MPNST tumor cells", "method": "high-content immunofluorescence imaging", "item": "nuclear SOX9", "tested at": "10 µM", "time": "12 h", "notes": "mean of 2 replicates", "relative to": "DMSO control", "direction": "higher = more nuclear SOX9"}
{"SMILES": "CCN(CC)C(C)CN1c2ccccc2Sc2ccccc21 (stereo not shown)", "nuclear SOX9 intensity": "111 % of DMSO"}
{"SMILES": "CN(N=O)C(=O)NC1C(O)OC(CO)C(O)C1O (stereo not shown)", "nuclear SOX9 intensity": "91.4 % of DMSO"}
{"SMILES": "O=C(NCCCCN1CCN(c2cccc(Cl)c2Cl)CC1)c1ccc2c(c1)Cc1ccccc1-2", "nuclear SOX9 intensity": "168 % of DMSO"}
{"SMILES": "CNC(=O)c1ccccc1Sc1ccc2c(/C=C/c3ccccn3)n[nH]c2c1", "nuclear SOX9 intensity": "154 % of DMSO"}
{"data": "Study 2", "organism": "Sarcocystis neurona", "effect on": "parasite growth", "tested at": "concentration not given", "notes": "first screen", "relative to": "untreated"}
{"Structure (SMILES)": "CN(C)CCC=C1c2ccccc2CCc2ccccc21.Cl", "log2 fold change": -0.22}
{"Structure (SMILES)": "CC(CN1c2ccccc2Sc2ccccc21)N(C)C.Cl (stereo not shown)", "log2 fold change": -0.31}
{"Structure (SMILES)": "CC(C)C[C@H](NC(=O)[C@@H](COC(C)(C)C)NC(=O)[C@H](Cc1ccc(O)cc1)NC(=O)[C@H](CO)NC(=O)[C@H](Cc1c[nH]c2ccccc12)NC(=O)[C@H](Cc1cnc[nH]1)NC(=O)[C@@H]1CCC(=O)N1)C(=O)N[C@@H](CCCNC(=N)N)C(=O)N1CCC[C@H]1C(=O)NNC(N)=O", "log2 fold change": -0.09}
{"data": "Study 3", "SMILES": "CC(C)n1cnc(-c2ccc(F)cc2)c1-c1ncc(C(=O)Nc2ccc(N3CCN(C)CC3)cc2)[nH]1", "method": "phase 2a trial"}
{"host": "patients with idiopathic pulmonary fibrosis", "dose": "dose not given", "notes": "free thyroxine decreased, grade 5, all arms", "patients with TEAE [%]": 0}
{"host": "idiopathic pulmonary fibrosis patients", "route": "oral", "dose": "60 mg once daily", "notes": "disc protrusion, grade 5", "patients with TEAE [%]": 0}
{"host": "idiopathic pulmonary fibrosis patients", "route": "oral", "dose": "dose not given", "notes": "ESR increased, grade 3, all arms", "patients with TEAE [%]": 0}
{"data": "Study 4", "cell line": "normal organoid sample F", "method": "CellTiter-Glo", "host": "human", "sample": "normal-adjacent epithelium", "tested at": "1 µM", "relative to": "DMSO"}
{"Compound": "CN(C)CC#Cc1ccc(OCCCc2sc(N3CCc4cccc(C(=O)Nc5nc6ccccc6s5)c4C3)nc2C(=O)O)c(F)c1", "viability": "18.6% and 20.7%"}
{"Compound": "CC(=O)N1CCC(c2ccc(C(=O)NC(=N)N)cc2C(F)(F)F)CC1", "viability": "113% and 108%"}
{"Compound": "Cc1c(NC(=O)c2ccc(C(C)(C)C)cc2)cccc1-c1cn(C)c(=O)c(Nc2ccc(C(=O)N3CCOCC3)cc2)n1", "viability": "130% and 169%"}
{"Compound": "O=c1nc(-c2ccccn2)sc2ccccc12", "viability": "85.7% and 113%"}
{"Compound": "O=C1NC(c2ccccn2)Sc2ccccc21 (stereo not shown)", "viability": "99.7% and 110%"}
{"Compound": "CN([C@@H]1CCc2c(CC(=O)O)c3ccccc3n2C1)S(=O)(=O)c1ccc(F)cc1", "viability": "104% and 108%"}
{"Compound": "Cc1c(C(=O)O)cc(-c2ccc(C3CCNCC3)cc2)c2ccc(-c3ccc(C(F)(F)F)cc3)cc12", "viability": "110% and 120%"}
{"Compound": "CC(=O)C1=C(C)N(c2cccc(C(F)(F)F)c2)C(=O)N[C@H]1c1ccc(C#N)nc1", "viability": "109% and 97%"}
{"Compound": "O=C(N1CCS(=O)(=O)CC1)N1C[C@H](c2ccc(OC(F)(F)F)cc2)C[C@H](c2nc(C3CC3)no2)C1", "viability": "102% and 109%"}
{"Compound": "c1ccc(N2CCN(Cc3nc4ccccc4[nH]3)CC2)nc1", "viability": "114% and 107%"}
{"Compound": "Cn1cc(Cl)c2c(Oc3c(F)cc(Nc4cc(Cl)nc(N)n4)cc3F)ccnc21", "viability": "112% and 108%"}
{"Compound": "CCNC(=O)c1cc2c(N3CCOC[C@@H]3C)ccnc2[nH]1", "viability": "115% and 106%"}
{"data": "Study 5", "Compound": "CN(C(=O)c1ccn2ncc(-c3ccc(C(N)=O)cc3)c2c1)c1ccc(C#N)cn1", "organism": "Cryptosporidium parvum", "method": "time-kill", "cells": "HCT-8", "strain": "nanoluciferase-expressing", "relative to": "DMSO control"}
{"tested at": "0.00305 µM", "time": "0 h", "luminescence remaining": "98% and 90.3% and 97.4% and 90.1% and 99.4% and 91.4% and 91.2% and 103%"}
{"tested at": "0.00305 µM", "time": "24 h", "luminescence remaining": "92.1% and 98.6%"}
{"tested at": "20 µM", "time": "8 h", "luminescence remaining": "82.2% and 96.3%"}
{"note": "Excerpt of the above (study 4):"}
{"Compound": "Cc1c(C(=O)O)cc(-c2ccc(C3CCNCC3)cc2)c2ccc(-c3ccc(C(F)(F)F)cc3)cc12", "viability": "110% and 120%"}
{"Compound": "O=C(N1CCS(=O)(=O)CC1)N1C[C@H](c2ccc(OC(F)(F)F)cc2)C[C@H](c2nc(C3CC3)no2)C1", "viability": "102% and 109%"}
